Experimental data gathered from unrelated publications.
Numbered parts are unrelated; each lists some results of a single study. Substitutions count along the parent as printed.

Study 1
Target: RNA binding protein fox-1 homolog 2, RRM domain, GST-SBP tag (RBFOX2, Homo sapiens, UniProt O43251-10, residues 100-194)
Method: RNA Bind-n-Seq
Form: RNA
Matrix: in vitro
Concentration: 365 nM
Notes: natural RNA segment, single round, ends assumed
Baseline: no-protein control
Direction: higher = stronger binding
Target sequence (chain): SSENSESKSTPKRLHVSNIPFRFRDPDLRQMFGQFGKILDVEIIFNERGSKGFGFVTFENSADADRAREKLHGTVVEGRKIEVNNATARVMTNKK
`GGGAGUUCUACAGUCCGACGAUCUUUGCUUAAUUCCUCAGGCUUUGCGAUUUAAGGAGGAGCUGCCUUAAAAAAAAAUAAAGGCCUUAUUUUGCAAUUAUGGGAGUAAACAAUAGUCUAGAGAAGCAUUUGGUUGGAAUUCUCGGGUGCCAA` — result for “RBNS enrichment (R)”: 3.15.
`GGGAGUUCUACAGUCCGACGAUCUCUUUUUUUUCCAAUUUCCUUGCUCCCAGGAUCCCCAUCUUGUAUAAAGUUUCUAAGGUGCUCCUCCUCAAACUCCAUUUUUACAAUAUCCGUAUUGUAAAAUUUUCAUUUGGAAUUCUCGGGUGCCAA` — result for “RBNS enrichment (R)”: 0.589.
`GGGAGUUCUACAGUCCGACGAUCUCCAUCGGCCGAAACUUUCCCAAGCCAGGGUGUGCGGAGCUUCCCUGUACUGCAGCCAAGGUGACGUGUGACUUGGAUUUGAGUGGAGUUGGGCUUAGCCUUAGUCUCAUUGGAAUUCUCGGGUGCCAA`: “RBNS enrichment (R)” 0.55.
Under “RBNS enrichment (R)”, `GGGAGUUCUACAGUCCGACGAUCGUUUGAAUCUGAAAUUUAACACUUAUUUAUGUAAAACACUUUAUUUAAGAUAUUUUCUAAUGAUUUUAAUUUUAGAGAGUACCUUUUCAUUCUGUGUGUUACAGAGAAGUUGGAAUUCUCGGGUGCCAA` is recorded as 0.54.
For `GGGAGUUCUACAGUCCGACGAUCAGUGCGGUACAAUCUGGAGCCCACAGCUGUCGGUCAGAACCUCCUGUGAGACAGAUGGAACCUUCACAAGGGCGCCUUUGGUUCUCUGAACAUCUCCUUUCUCUUCUUGCUGGAAUUCUCGGGUGCCAA`, “RBNS enrichment (R)” read 0.392.
Under “RBNS enrichment (R)”, `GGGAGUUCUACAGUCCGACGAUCCUAAAUGGGUGUAGUUGUAUAUGCACGAUGUAAUUUAAUGCUAAAGAGUACUUACAGCUUGAGGGAAAAGCAUAAAGUUUUAGUUAAAUAGCCUUCAUACUGUGGAUUUUUGGAAUUCUCGGGUGCCAA` is recorded as 2.1.
`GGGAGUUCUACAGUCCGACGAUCAAAAAGAGAAACCUUAUCUUUGCUUUGUGGUUCCUUUAAACACACUCACACACACUUGGUCAGAGAUGCUGUGCUUCUUGGAAGCAAGGACUCAAAGGCAAGGUGCACGCUGGAAUUCUCGGGUGCCAA`: “RBNS enrichment (R)” 1.09.
`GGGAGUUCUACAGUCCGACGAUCGGUUAUUUUUGUAUGAUCUAGUAACUUGCAAACAGACCAAAUGGAUGAGAGGCGGGGACCGUGCAGCUGUCGGCUGAUGAGGAGGCGGCCGCCCCAGUGCUGAUGGAGAUUGGAAUUCUCGGGUGCCAA` — result for “RBNS enrichment (R)”: 1.44.
Under “RBNS enrichment (R)”, `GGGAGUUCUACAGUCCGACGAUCCCUAAGGAGAUUCCACACAUGCGUAUCUCUGUUGCUUCUAUUGGCCUAAACCCACUACUGCCAAAGAACCCAGCAACAAACCUCCCGGCUAGGAGCUUUAGAAGUCUUUAUGGAAUUCUCGGGUGCCAA` is recorded as 0.313.
For `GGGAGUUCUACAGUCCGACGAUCCAGCUUUUGGGAUAGCCCCCGCUCUAGUUGUUCAGAACCUACAUGAAAACCAGGCUGCAUGUUCUGCUAUGUAUGUGUGGGAAGCCUAGGUCCAGCCUGUGUAUGUUCUUUGGAAUUCUCGGGUGCCAA`, “RBNS enrichment (R)” read 31.

Study 2
Target: Histone acetyltransferase KAT6A, winged helix 1, GST fusion (KAT6A, Homo sapiens, UniProt Q92794, residues 1-85)
Method: protein binding microarray
Form: double-stranded DNA, one strand shown
Matrix: in vitro
Concentration: not given
Notes: 8-mer, flanks averaged, mean of 2 arrays, mostly near background
Baseline: not given
Direction: higher = stronger binding
Construct (chain): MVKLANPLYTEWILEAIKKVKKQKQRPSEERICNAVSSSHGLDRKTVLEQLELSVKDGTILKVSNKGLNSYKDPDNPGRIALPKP
For `CACGGGCC`, the E-score was 0.284.
`CCCTATCA` gave an E-score of -0.253.
`GTTCCCGA` gave an E-score of 0.209.
For `GTCTTCAC`, the E-score was 0.0521.
With `CCTGACTC` the E-score was -0.0306.
The E-score of `AACACCAT` is reported as -0.135.
`AAGGCAGA` has an E-score of -0.24.
The E-score of `AACTTCCA` is reported as -0.114.
The E-score of `ACACTTAA` is reported as -0.0944.
For `AGTGGTAG`, the E-score was -0.14.
`CATTGCAA` gave an E-score of -0.119.
With `AGTGGGCA` the E-score was -0.221.

Study 3
Target: CCNF, cyclin fold, Cln2 fusion (human)
Method: yeast growth competition, sequencing
Matrix: yeast
Notes: strong parent motif
Baseline: not given
Direction: higher = stronger binding
Starting sequence: PKN2 docking peptide (human); VSAVRKLDFSDTM
`S10Q` — result for “normalised enrichment score”: 7.18.
Under “normalised enrichment score”, `S10K` is recorded as 6.66.
`R5G`: “normalised enrichment score” -0.345.
For `F9M`, “normalised enrichment score” read 6.2.
For `R5L`, “normalised enrichment score” read 0.88.
Under “normalised enrichment score”, `R5H` is recorded as 0.603.
`D11I`: “normalised enrichment score” 7.45.
`S10H` — result for “normalised enrichment score”: 6.99.
Under “normalised enrichment score”, `D11N` is recorded as 7.2.
`F9T` — result for “normalised enrichment score”: 0.377.
For `R5T`, “normalised enrichment score” read 0.789.
Under “normalised enrichment score”, `A3M` is recorded as 5.47.
`D11S` — result for “normalised enrichment score”: 7.32.
For `S10Y`, “normalised enrichment score” read 7.17.
`D11R`: “normalised enrichment score” 7.6.

Study 4
Target: ABI1, truncated, D143A, DHFR fusion (Arabidopsis thaliana)
Method: DHFR PCA, deep sequencing
Matrix: yeast
Notes: methotrexate growth selection, single substitutions
Together with: (+)-ABA 0 µM
Baseline: wild-type fitted maximum
Direction: higher = stronger binding
Starting sequence: PYL1, truncated, DHFR fusion (Arabidopsis thaliana); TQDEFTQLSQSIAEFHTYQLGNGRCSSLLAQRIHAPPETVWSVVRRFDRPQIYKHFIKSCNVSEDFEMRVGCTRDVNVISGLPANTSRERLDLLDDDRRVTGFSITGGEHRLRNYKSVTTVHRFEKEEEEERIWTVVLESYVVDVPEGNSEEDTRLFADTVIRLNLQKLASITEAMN
`V121R`: “relative binding score” 3.72%.
`Q2Y` — result for “relative binding score”: 68.7%.
Under “relative binding score”, `V76Y` is recorded as -0.427%.
For `T6H`, “relative binding score” read 39.8%.
`V142F` — result for “relative binding score”: -8.53%.
`V161Y` — result for “relative binding score”: 14.1%.
`V70S` — result for “relative binding score”: 4.25%.
`D159F`: “relative binding score” -16.6%.
`K126E`: “relative binding score” 34.8%.
Under “relative binding score”, `T73F` is recorded as 43.8%.
`S27C`: “relative binding score” 2.06%.
For `G148F`, “relative binding score” read -17.7%.
`E128Y` — result for “relative binding score”: 11.1%.
`S150G`: “relative binding score” 1.42%.
`V40I` — result for “relative binding score”: 5%.
`K116I` — result for “relative binding score”: -0.0658%.
For `E14D`, “relative binding score” read 10.6%.
`V136P` — result for “relative binding score”: -10.6%.
For `I52F`, “relative binding score” read 8.5%.

Study 5
Target: Interferon regulatory factor 3, full length, phosphomimetic (IRF3, Homo sapiens, UniProt Q14653, residues 1-427, S386D/S396D/S398D/S402D/T404D/S405D)
Method: protein-binding microarray
Form: double-stranded DNA, one strand shown
Matrix: in vitro
Concentration: 2540 nM top
Notes: 60-bp whole probe
Together with: salmon DNA 0.4 mg/ml
Baseline: random background probes
Direction: higher = stronger binding
Shared flanks, not repeated: GCCTAGCAC … GTCTTGATTCGCTTGACGCTGCTG
Construct (chain): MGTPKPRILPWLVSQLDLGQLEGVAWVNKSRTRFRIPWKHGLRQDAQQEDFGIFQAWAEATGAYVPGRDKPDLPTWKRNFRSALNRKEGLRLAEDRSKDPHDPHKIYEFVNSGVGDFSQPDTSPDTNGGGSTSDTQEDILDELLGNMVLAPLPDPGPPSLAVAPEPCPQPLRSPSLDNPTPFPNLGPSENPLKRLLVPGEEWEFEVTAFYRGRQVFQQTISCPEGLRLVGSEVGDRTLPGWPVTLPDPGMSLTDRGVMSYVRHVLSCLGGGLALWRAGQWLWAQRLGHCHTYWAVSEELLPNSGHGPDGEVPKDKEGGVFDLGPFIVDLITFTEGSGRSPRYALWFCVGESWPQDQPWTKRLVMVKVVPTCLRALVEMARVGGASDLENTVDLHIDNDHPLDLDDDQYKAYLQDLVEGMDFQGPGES
`TCTCTTTTATTTTTTTTATTGTGCTAG`: “fitted relative affinity” 1.97 z-score.
`AGGTGGGAGGGGACAGTGGTGTGCTAG` — result for “fitted relative affinity”: -0.834 z-score.
`GACGGTATCGGAACTGGGGACGTGCTA` — result for “fitted relative affinity”: 3.53 z-score.
`GACGGGATCGACTATCGGGACGTGCTA` — result for “fitted relative affinity”: -0.123 z-score.
Under “fitted relative affinity”, `TTAGATCTCAGTATCGGTTAGTGCTAG` is recorded as 2 z-score.
For `TTGTGTCTGGGCATTTTTTTAGTGCTA`, “fitted relative affinity” read -0.887 z-score.
`TTAGGTTTCGACTCTCGGTTAGTGCTA`: “fitted relative affinity” 3.87 z-score.
`TCAATTTCTGTTTTTGCACTGTGCTAG`: “fitted relative affinity” 3.33 z-score.
For `TAAGGTTTCGGTCTCGGTTAGTGCTAG`, “fitted relative affinity” read 8.61 z-score.
`TCATATATTATATATTTAACTGTGCTA`: “fitted relative affinity” 0.476 z-score.
Under “fitted relative affinity”, `GACGATTTCAGTTCCTAGACGTGCTAG` is recorded as 2.87 z-score.
`TCATATGTCATTTACATACTGTGCTAG`: “fitted relative affinity” 1.11 z-score.
Under “fitted relative affinity”, `GACGATATCAGACTGTAGACGTGCTAG` is recorded as 0.201 z-score.
`TCATCTTCAGCACTCGGACTGTGCTAG` — result for “fitted relative affinity”: 0.73 z-score.

Repeated from above (study 4):
`S27C`: “relative binding score” 2.06%.
Under “relative binding score”, `V76Y` is recorded as -0.427%.
For `T6H`, “relative binding score” read 39.8%.
`V40I` — result for “relative binding score”: 5%.
`V136P` — result for “relative binding score”: -10.6%.
For `I52F`, “relative binding score” read 8.5%.
`S150G`: “relative binding score” 1.42%.
For `G148F`, “relative binding score” read -17.7%.
For `E14D`, “relative binding score” read 10.6%.
`D159F`: “relative binding score” -16.6%.
`V142F` — result for “relative binding score”: -8.53%.
